Published values of several laboratories.
Numbered parts are unrelated; each lists some results of a single study.

Study 1 — effect on: enzyme activity; mode: inhibitor; concentration: 10 µM
Target: Calcium/calmodulin-dependent protein kinase type II subunit alpha (CAMK2A, Homo sapiens, UniProt Q9UQM7)
UniProt Q9UQM7, sequence (whole entry, looked up): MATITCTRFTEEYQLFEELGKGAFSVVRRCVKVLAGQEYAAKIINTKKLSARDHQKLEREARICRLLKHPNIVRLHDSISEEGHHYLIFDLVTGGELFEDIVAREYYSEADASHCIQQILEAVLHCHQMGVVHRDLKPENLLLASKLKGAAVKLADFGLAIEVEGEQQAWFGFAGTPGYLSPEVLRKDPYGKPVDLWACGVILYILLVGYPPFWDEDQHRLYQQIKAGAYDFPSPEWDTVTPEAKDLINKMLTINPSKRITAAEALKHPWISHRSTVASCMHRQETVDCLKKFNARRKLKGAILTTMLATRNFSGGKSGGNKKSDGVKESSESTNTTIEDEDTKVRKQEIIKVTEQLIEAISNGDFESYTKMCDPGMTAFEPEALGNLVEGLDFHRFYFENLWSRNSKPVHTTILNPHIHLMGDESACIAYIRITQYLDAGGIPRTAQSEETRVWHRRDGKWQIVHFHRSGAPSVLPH
SMILES | inhibition [%]
C[C@]12CCC(=O)C=C1CC[C@@H]1[C@@H]2[C@@H](O)C[C@]2(C)C(=O)CC[C@@H]12 | 2
C[C@H]1CCC[C@@H](O)CCC/C=C/c2cc(O)cc(O)c2C(=O)O1 | -20
COc1ccc(/C=C/c2cc(OC)cc(OC)c2)cc1 | -19

Study 2 — effect on: binding; technique: radioligand binding; concentration: 10 µM
Target: Sodium-dependent dopamine transporter (SLC6A3, Homo sapiens, UniProt Q01959)
UniProt Q01959, sequence (whole entry, looked up): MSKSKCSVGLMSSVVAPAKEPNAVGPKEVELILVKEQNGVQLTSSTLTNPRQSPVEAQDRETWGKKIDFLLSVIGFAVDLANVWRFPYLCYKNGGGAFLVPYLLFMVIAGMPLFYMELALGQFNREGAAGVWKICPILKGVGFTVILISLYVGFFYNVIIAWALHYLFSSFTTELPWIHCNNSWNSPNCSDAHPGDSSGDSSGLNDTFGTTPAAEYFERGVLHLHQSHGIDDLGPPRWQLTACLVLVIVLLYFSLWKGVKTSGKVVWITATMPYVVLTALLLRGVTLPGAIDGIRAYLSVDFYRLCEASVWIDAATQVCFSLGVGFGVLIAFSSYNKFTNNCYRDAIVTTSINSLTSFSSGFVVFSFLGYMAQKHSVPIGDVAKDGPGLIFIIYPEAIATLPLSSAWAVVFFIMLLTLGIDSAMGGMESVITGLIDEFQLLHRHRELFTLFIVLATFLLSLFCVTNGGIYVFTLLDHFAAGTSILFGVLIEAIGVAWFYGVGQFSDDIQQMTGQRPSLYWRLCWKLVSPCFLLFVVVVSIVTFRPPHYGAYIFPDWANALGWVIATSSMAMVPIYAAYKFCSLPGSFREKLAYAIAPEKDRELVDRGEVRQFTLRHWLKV
Structure (SMILES) | inhibition [%]
Cc1nccc(COC(=O)N2C[C@@H]3[C@@H](CNC(=O)c4ccc5[nH]nnc5c4)[C@@H]3C2)n1 | -17.6
COc1cc(-c2cn(C3CCc4ccccc4N(CC(F)(F)F)C3=O)nn2)ccc1-n1ccc(C)n1 (stereo not shown) | 5.21
O=C(Nc1ccc(-n2nc(-c3cccnc3)cc2C(F)(F)F)cn1)c1ccc(-c2ccccc2)c(F)c1 | 68.2
Cc1nc(N2CC[C@@H](O)C2)ncc1-c1cc(C(F)(F)F)cc2[nH]ncc12 | 75.2
Cc1cc(C)c(-n2ccn3nc(-c4cccnc4)cc23)cc1NC(=O)c1cc(C#N)cc(S(F)(F)(F)(F)F)c1 | 10.7
CC(C)(O)c1cncc(-c2nc3ccc(F)cc3n2C2CC2)c1 | 1.47
COc1nc2ccc([C@@](O)(c3ccccc3)C3CCN(C(C)=O)CC3)cc2c(Cl)c1Cc1ccc(-n2cccn2)cc1 | 21
C[C@@H]1CN(c2cc(-c3nn(C)c4ccc(OC5(C)CC5)cc34)ncn2)C[C@H](C)O1 | -24.4
Nc1c(C(=O)NCc2ccc(C(=O)NCCCC3CCCCC3)cc2)cnn1-c1ccccc1 | 26.8
CC(=O)N1CCC(c2ccc(C(=O)NC(=N)N)cc2C(F)(F)F)CC1 | 77.9
Cc1c[nH]c2nccc(Oc3c(F)cc(Nc4cc(Cl)nc(N)n4)cc3F)c12 | -16.6

Study 3 — cell line: HEK-293T/ACE2; time: 17.5 h
SMILES | CC50
CC(=O)c1ccc2c(c1)N(CCCN(C)C)c1ccccc1S2 | 77.1 µM
CN1CCN(CCCN2c3ccccc3Sc3ccccc32)CC1 | 71 µM
CN1CCN(CCCN2c3ccccc3Sc3ccc(C(F)(F)F)cc32)CC1 | 24.6 µM
COc1ccc2c(c1)N(C[C@H](C)CN(C)C)c1ccccc1S2 | 42.2 µM

Study 4 — organism: Sarcocystis neurona; effect on: parasite growth; concentration: 10 µM; time: 96 h; relative to: untreated
SMILES | log2 fold change
OCCN1CCN(CCCN2c3ccccc3Sc3ccc(Cl)cc32)CC1 | -3.51
CC(C)[C@]12O[C@H]1[C@@H]1O[C@]13[C@]1(O[C@H]1C[C@H]1C4=C(CC[C@@]13C)C(=O)OC4)[C@@H]2O | -2.85
CCC1(c2ccc(N)cc2)CCC(=O)NC1=O (stereo not shown) | 0.36
C[C@H]1[C@H](OC(=O)CCC(=O)O)O[C@@H]2O[C@@]3(C)CC[C@H]4[C@H](C)CC[C@@H]1[C@@]24OO3 | -2.87

For quick reference, copied from above (study 2):
Structure (SMILES) | inhibition [%]
COc1cc(-c2cn(C3CCc4ccccc4N(CC(F)(F)F)C3=O)nn2)ccc1-n1ccc(C)n1 (stereo not shown) | 5.21
O=C(Nc1ccc(-n2nc(-c3cccnc3)cc2C(F)(F)F)cn1)c1ccc(-c2ccccc2)c(F)c1 | 68.2
